Results pooled from the literature.
Parts stem from different laboratories: compare values within a part only. Values joined by “and” are separate records of one study, mostly repeats; a detail may differ.
Chain of UniProt Q8IY84 (whole entry, looked up): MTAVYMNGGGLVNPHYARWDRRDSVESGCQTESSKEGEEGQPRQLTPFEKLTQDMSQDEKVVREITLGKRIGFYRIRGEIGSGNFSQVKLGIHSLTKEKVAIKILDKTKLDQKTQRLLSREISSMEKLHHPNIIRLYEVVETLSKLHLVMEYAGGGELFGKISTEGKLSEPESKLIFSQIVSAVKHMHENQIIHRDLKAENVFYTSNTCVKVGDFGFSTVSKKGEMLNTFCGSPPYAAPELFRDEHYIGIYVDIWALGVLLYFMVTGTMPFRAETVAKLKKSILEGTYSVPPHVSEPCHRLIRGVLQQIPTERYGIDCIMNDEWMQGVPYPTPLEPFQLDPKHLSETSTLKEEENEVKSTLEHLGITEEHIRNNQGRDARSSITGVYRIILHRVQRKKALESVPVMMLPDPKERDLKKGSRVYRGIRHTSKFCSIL
Chain of UniProt Q92630 (whole entry, looked up): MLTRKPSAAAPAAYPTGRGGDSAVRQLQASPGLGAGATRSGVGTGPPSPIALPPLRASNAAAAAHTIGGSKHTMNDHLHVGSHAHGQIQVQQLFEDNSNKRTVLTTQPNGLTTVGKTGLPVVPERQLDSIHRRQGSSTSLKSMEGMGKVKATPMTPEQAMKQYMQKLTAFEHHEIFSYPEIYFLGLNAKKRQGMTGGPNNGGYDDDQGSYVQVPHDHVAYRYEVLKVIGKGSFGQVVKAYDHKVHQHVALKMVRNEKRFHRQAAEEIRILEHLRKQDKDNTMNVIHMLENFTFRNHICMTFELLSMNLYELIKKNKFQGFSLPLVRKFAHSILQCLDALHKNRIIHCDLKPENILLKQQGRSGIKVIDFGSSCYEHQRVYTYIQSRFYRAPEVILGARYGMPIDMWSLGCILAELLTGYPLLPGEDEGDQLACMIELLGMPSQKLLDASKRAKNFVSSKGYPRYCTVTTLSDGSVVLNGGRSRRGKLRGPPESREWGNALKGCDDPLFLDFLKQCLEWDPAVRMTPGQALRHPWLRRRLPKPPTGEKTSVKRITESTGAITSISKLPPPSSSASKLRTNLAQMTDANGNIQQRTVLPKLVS
Chain of UniProt P42680 (whole entry, looked up): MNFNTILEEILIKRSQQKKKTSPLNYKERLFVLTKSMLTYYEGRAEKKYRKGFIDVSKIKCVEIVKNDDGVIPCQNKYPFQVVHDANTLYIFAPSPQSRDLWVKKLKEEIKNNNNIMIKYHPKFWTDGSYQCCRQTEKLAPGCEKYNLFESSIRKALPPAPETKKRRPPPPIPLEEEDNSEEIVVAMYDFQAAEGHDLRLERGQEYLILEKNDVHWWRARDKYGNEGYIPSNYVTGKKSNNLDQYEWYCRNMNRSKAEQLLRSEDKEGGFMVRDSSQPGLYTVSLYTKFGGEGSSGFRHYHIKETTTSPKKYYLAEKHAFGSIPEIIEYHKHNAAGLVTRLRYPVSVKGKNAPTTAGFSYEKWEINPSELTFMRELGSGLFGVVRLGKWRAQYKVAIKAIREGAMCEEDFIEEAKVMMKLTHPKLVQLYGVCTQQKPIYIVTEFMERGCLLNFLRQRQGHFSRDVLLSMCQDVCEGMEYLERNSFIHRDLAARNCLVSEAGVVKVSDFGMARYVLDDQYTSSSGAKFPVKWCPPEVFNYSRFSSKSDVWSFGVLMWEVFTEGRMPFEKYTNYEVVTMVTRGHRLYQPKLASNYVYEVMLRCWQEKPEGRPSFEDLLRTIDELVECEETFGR
Chain of UniProt Q16539 (whole entry, looked up): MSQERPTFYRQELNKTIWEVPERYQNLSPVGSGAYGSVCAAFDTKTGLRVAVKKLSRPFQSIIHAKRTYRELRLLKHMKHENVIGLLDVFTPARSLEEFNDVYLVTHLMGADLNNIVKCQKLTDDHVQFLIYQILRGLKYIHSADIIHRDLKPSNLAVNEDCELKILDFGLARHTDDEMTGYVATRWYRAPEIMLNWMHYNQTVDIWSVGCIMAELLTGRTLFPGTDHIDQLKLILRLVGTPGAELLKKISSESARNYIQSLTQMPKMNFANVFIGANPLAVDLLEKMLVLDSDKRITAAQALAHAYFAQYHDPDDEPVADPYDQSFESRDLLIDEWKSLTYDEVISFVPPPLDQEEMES
Chain of UniProt P54756 (whole entry, looked up): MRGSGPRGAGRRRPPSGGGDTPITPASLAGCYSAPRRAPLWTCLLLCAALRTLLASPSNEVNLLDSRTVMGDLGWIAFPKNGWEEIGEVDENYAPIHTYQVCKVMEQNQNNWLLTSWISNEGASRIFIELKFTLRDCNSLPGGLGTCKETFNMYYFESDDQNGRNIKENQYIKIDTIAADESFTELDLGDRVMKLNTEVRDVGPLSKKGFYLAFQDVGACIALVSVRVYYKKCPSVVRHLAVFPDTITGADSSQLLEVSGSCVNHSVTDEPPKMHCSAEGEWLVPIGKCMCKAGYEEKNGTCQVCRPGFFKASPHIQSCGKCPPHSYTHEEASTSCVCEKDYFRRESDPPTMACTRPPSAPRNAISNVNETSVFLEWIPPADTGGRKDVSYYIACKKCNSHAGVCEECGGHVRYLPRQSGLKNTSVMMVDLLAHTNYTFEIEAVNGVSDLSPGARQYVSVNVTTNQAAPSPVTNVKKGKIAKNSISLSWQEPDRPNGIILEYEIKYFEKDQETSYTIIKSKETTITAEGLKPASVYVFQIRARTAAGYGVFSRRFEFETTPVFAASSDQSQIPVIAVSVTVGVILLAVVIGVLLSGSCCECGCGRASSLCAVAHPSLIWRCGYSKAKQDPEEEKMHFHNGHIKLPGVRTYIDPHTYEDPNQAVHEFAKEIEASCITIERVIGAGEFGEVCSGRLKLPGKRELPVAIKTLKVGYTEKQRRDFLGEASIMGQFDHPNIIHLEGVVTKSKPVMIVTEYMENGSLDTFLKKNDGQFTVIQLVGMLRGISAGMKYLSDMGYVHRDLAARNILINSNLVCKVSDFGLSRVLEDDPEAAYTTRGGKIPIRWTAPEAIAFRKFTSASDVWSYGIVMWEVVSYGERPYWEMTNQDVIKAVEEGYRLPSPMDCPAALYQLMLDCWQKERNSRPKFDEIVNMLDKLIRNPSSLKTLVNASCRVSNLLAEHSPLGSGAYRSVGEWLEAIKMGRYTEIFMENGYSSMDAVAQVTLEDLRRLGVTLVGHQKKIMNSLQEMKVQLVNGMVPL
Chain of UniProt Q8N568 (whole entry, looked up): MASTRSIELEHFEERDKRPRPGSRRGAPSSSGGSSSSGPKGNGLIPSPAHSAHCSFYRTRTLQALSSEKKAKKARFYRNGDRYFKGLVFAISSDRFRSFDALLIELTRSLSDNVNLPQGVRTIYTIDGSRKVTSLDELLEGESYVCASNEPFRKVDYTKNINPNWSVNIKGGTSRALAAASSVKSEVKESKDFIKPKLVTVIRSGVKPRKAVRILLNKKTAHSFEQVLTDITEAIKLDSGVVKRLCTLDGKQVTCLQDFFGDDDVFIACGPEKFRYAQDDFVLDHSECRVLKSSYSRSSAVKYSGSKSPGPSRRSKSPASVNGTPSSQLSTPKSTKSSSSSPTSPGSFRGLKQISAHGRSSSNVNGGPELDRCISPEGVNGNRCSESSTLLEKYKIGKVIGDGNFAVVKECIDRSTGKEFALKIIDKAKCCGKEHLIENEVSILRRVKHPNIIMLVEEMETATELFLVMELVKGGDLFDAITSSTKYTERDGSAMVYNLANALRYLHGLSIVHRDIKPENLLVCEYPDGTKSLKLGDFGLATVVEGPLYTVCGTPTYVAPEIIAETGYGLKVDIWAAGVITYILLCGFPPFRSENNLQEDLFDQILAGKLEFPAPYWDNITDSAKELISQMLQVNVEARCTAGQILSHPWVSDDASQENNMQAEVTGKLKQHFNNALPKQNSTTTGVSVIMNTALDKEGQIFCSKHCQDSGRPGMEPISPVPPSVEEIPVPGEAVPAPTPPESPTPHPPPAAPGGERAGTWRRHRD
Chain of UniProt Q9UIK4 (whole entry, looked up): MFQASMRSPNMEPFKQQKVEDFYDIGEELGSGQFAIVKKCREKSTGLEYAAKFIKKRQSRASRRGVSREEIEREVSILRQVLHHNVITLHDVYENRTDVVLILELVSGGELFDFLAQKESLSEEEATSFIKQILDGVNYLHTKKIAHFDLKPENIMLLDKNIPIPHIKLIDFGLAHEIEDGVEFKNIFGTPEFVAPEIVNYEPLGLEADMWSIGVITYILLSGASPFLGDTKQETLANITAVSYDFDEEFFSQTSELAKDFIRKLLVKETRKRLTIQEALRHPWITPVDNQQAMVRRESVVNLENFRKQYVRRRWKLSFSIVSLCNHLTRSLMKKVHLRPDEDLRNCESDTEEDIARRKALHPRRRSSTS
Chain of UniProt Q8IWQ3 (whole entry, looked up): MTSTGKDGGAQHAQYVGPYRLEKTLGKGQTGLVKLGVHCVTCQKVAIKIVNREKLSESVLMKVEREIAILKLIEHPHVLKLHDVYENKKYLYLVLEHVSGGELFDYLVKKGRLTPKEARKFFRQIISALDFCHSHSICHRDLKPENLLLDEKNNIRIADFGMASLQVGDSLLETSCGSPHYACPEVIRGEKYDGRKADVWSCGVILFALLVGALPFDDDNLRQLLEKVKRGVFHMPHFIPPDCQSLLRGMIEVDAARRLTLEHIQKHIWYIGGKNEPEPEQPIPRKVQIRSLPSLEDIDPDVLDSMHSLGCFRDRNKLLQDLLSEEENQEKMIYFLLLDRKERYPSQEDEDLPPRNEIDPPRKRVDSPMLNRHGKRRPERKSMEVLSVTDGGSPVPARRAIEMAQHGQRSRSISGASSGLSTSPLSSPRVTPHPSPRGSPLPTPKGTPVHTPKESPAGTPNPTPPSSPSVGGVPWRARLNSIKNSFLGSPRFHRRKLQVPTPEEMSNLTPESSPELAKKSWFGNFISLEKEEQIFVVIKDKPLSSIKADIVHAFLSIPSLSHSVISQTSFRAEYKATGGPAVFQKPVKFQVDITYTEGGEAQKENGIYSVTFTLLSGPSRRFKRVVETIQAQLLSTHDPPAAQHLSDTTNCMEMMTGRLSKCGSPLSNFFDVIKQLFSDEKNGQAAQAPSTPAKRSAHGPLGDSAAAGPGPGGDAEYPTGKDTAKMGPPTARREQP

Study 1
Host: mouse
Medium: microsomes or S9
Tested at: 2 µM
Time: 0.5 h
Compound	remaining compound [%]
CS(=O)(=O)c1ccc(Oc2cc(F)cc(C(=O)O)c2)c2c1[C@H](O)C(F)(F)C2	79.5
CN(C)C(=O)COCC(=O)Nc1ccc(C#N)cc1	1.79
CCn1nc(C)cc1S(=O)(=O)NC1CCOC2(CCOCC2)C1 (stereo not shown)	20.7
CC(C)Cn1c(NCCN(C)C)nc2c1c(=O)[nH]c(=O)n2C	94.6
CCC1(c2ccc(NC(=O)c3c(OC)cccc3OC)cc2)CCC(=O)N=C1O (stereo not shown)	41
CC1(C(=O)NC2CCCCCC2)Cn2c(cc3occc32)C(=O)N1Cc1ccco1 (stereo not shown)	0.161

Study 2
SMILES: CC(C)CC(=O)N1CCc2nc(-c3ccc(Br)cc3)nc(N(C)Cc3ccccc3)c2C1
Effect on: cell-free assay
Method: competition with immobilised ligand
Tested at: 0.1 µM
target	remaining binding [%]
Homeodomain-interacting protein kinase 2 (HIPK2, Homo sapiens, UniProt Q9H2X6)	100
Tyrosine-protein kinase ABL1, phosphorylated (ABL1, Homo sapiens, UniProt P00519, M351T)	100
Dual specificity tyrosine-phosphorylation-regulated kinase 2 (DYRK2, Homo sapiens, UniProt Q92630)	84
Ephrin type-A receptor 5 (EPHA5, Homo sapiens, UniProt P54756)	89
Serine/threonine-protein kinase B-raf (BRAF, Homo sapiens, UniProt P15056)	100
Serine/threonine-protein kinase NIM1 (NIM1K, Homo sapiens, UniProt Q8IY84)	100
TGF-beta receptor type-2 (TGFBR2, Homo sapiens, UniProt P37173)	97
ALK tyrosine kinase receptor (ALK, Homo sapiens, UniProt Q9UM73)	91
Serine/threonine-protein kinase BRSK2 (BRSK2, Homo sapiens, UniProt Q8IWQ3)	94
Phosphatidylinositol 4-phosphate 5-kinase type-1 gamma (PIP5K1C, Homo sapiens, UniProt O60331)	85
Mitogen-activated protein kinase 14 (MAPK14, Homo sapiens, UniProt Q16539)	100
Phosphatidylinositol 4,5-bisphosphate 3-kinase catalytic subunit alpha isoform (PIK3CA, Homo sapiens, UniProt P42336, I800L)	98
Tyrosine-protein kinase Tec (TEC, Homo sapiens, UniProt P42680)	100
Serine/threonine-protein kinase 3 (STK3, Homo sapiens, UniProt Q13188)	100
Serine/threonine-protein kinase DCLK3 (DCLK3, Homo sapiens, UniProt Q9C098)	100
Serine/threonine-protein kinase DCLK2 (DCLK2, Homo sapiens, UniProt Q8N568)	100
Mitogen-activated protein kinase 8 (MAPK8, Homo sapiens, UniProt P45983)	100

Study 3
SMILES: CCC(=O)Nc1ccc2ncnc(Nc3cccc(Br)c3)c2c1
Effect on: enzyme activity
Action: inhibitor
Tested at: 0.5 µM
Baseline: control
target	remaining activity [%]
Inhibitor of nuclear factor kappa-B kinase subunit epsilon (IKBKE, Homo sapiens, UniProt Q14164)	94.9
G protein-coupled receptor kinase 3 (GRK3, Homo sapiens, UniProt P35626)	99.2
Protein kinase C beta type, isoform beta-I (PRKCB, Homo sapiens, UniProt P05771)	99.2
Serine/threonine-protein kinase STK11 (STK11, Homo sapiens, UniProt Q15831)	103
Cyclin-dependent kinase 4, with cyclin D1 (CDK4, Homo sapiens, UniProt P11802)	101
cGMP-dependent protein kinase 1, isoform beta (PRKG1, Homo sapiens, UniProt Q13976)	110
Death-associated protein kinase 2 (DAPK2, Homo sapiens, UniProt Q9UIK4)	121

Study 4
Compound: COc1cc(C(=O)OCCCN2CCCN(CCCOC(=O)c3cc(OC)c(OC)c(OC)c3)CC2)cc(OC)c1OC
method	host	route	dose	time	notes	paw withdrawal frequency
von Frey test	mouse, STZ diabetic neuropathy	subcutaneous	30 mg/kg, second of three doses	5 h		0.32 fraction of stimuli and 0.04 fraction of stimuli and 0.15 fraction of stimuli and 0.17 fraction of stimuli
von Frey, 0.4 g filament	mouse, CFA inflammatory pain	intravenous	dose not given	3 h post-dose	third injection, day 5	80% and 90% and 70%
von Frey, 0.4 g filament	mouse, CFA inflammatory pain	subcutaneous	10 mg/kg	24 h post-dose	first injection, day 1	80% and 60% and 70% and 90%
von Frey, 0.4 g filament	mouse, CFA inflammatory pain	subcutaneous	10 mg/kg	1 h post-dose	third injection, day 5	80% and 90% and 60% and 70%

A few entries again (study 4):
method	host	route	dose	time	notes	paw withdrawal frequency
von Frey test	mouse, STZ diabetic neuropathy	subcutaneous	30 mg/kg, second of three doses	5 h		0.32 fraction of stimuli and 0.04 fraction of stimuli and 0.15 fraction of stimuli and 0.17 fraction of stimuli
von Frey, 0.4 g filament	mouse, CFA inflammatory pain	intravenous	dose not given	3 h post-dose	third injection, day 5	80% and 90% and 70%
von Frey, 0.4 g filament	mouse, CFA inflammatory pain	subcutaneous	10 mg/kg	24 h post-dose	first injection, day 1	80% and 60% and 70% and 90%
von Frey, 0.4 g filament	mouse, CFA inflammatory pain	subcutaneous	10 mg/kg	1 h post-dose	third injection, day 5	80% and 90% and 60% and 70%
